{"data": "Measured values from different studies", "note": "Numbers after ± are the reported error."}
{"SMILES": "CCCC[C@H](NC(=O)COCCOCCNC(=O)CN1CCN(CC(=O)O)CCN(CC(=O)O)CC1)C(=O)N[C@H]1CC(=O)NCCCC[C@@H](C(N)=O)NC(=O)[C@H](Cc2c[nH]c3ccccc23)NC(=O)[C@H](CCCNC(=N)N)NC(=O)[C@@H](Cc2ccccc2)NC(=O)[C@H](Cc2c[nH]cn2)NC1=O [copper-64 labelled]", "system": "C57 mice, brain", "conditions": "intravenous, 0.37 MBq, 2 h", "quantity": "tissue uptake", "result": "0.03 ± 0.01 %ID/g"}
{"SMILES": "N=C(N)NCCC[C@@H]1NC(=O)[C@H](CCCCNC(=O)CC[C@H](NC(=O)CC[C@H](NC(=O)CN2CCN(CC(=O)O)CCN(CC(=O)O)CCN(CC(=O)O)CC2)C(=O)N[C@@H](CCC(=O)NCCCC[C@@H]2NC(=O)[C@@H](Cc3ccccc3)NC(=O)[C@H](CC(=O)O)NC(=O)CNC(=O)[C@H](CCCNC(=N)N)NC2=O)C(=O)NCCCC[C@@H]2NC(=O)[C@@H](Cc3ccccc3)NC(=O)[C@H](CC(=O)O)NC(=O)CNC(=O)[C@H](CCCNC(=N)N)NC2=O)C(=O)NCCCC[C@@H]2NC(=O)[C@@H](Cc3ccccc3)NC(=O)[C@H](CC(=O)O)NC(=O)CNC(=O)[C@H](CCCNC(=N)N)NC2=O)NC(=O)[C@@H](Cc2ccccc2)NC(=O)[C@H](CC(=O)O)NC(=O)CNC1=O [indium-111 labelled]", "system": "female athymic nu/nu mice, eyes", "conditions": "intravenous, 0.5 h", "quantity": "tissue uptake", "result": "1.56 ± 0.15 %ID/g"}
{"SMILES": "CC(C)C[C@H](NC(=O)[C@H](Cc1ccc(O)cc1)NC(=O)[C@@H](CCCNC(=N)N)NC(=O)[C@@H](CO)NC(=O)[C@H](Cc1ccccc1)NC(=O)[C@H](CC1CCCCC1)NC(=O)[C@H](CC(=O)O)NC(=O)CN1CCCN2CCN(CCCN(CC(=O)O)CC2)CC1)C(=O)N[C@@H](Cc1c[nH]c2ccccc12)C(=O)N[C@@H](CO)C(=O)O [copper-64 labelled]", "system": "female NMRI nude mice, heart", "conditions": "1 h p.i.", "quantity": "tissue uptake", "result": "1.2 ± 0.1 %ID/g"}
{"SMILES": "CCCC[C@H](NC(=O)[C@H](CC(N)=O)NC(=O)[C@H](CCCNC(=N)N)NC(=O)[C@@H](NC(=O)CNC(=O)[C@H](C)NC(=O)[C@H](CCCCNC(=O)CCC(=O)O[C@@H](C(=O)O[C@H]1C[C@@]2(O)[C@@H](OC(=O)c3ccccc3)[C@@H]3[C@]4(OC(C)=O)CO[C@@H]4C[C@H](O)[C@@]3(C)C(=O)[C@H](O)C(=C1C)C2(C)C)[C@@H](NC(=O)OC(C)(C)C)c1ccccc1)NC(=O)[C@H](C)NC(=O)[C@H](CCCNC(=N)N)NC(=O)[C@@H](NC(=O)CNC(C)=O)C(C)C)C(C)C)C(=O)N[C@@H](Cc1ccccc1)C(=O)N[C@@H](CCCCNC(=O)CCC(=O)O[C@@H](C(=O)O[C@H]1C[C@@]2(O)[C@@H](OC(=O)c3ccccc3)[C@@H]3[C@]4(OC(C)=O)CO[C@@H]4C[C@H](O)[C@@]3(C)C(=O)[C@H](O)C(=C1C)C2(C)C)[C@@H](NC(=O)OC(C)(C)C)c1ccccc1)C(=O)N[C@@H](CO)C(=O)N[C@@H](CCC(=O)O)C(=O)N[C@@H](CO)C(=O)N[C@@H](Cc1ccc(O)cc1)C(=O)O", "system": "CD-1 mouse, plasma", "conditions": "intravenous, 50 mg/kg, single dose", "quantity": "Cmax", "result": "388 µM"}
{"SMILES": "C[C@@H](O)[C@H](NC(=O)[C@@H]1CSSC[C@H](NC(=O)[C@@H](Cc2ccccc2)NC(=O)CCCCC2(N(CC(=O)O)CC(=O)O)CN(CC(=O)O)CCN(CC(=O)O)C2)C(=O)N[C@@H](Cc2ccc(O)cc2)C(=O)N[C@H](Cc2c[nH]c3ccccc23)C(=O)N[C@@H](CCCCN)C(=O)N[C@@H]([C@@H](C)O)C(=O)N1)C(=O)O", "assay": "capillary electrophoresis, NTA competition", "system": "0.15 M NaClO4", "conditions": "pH 7.4, 25 °C", "quantity": "log conditional stability constant", "result": 24.3}
{"SMILES": "CCCC[C@H](NC(=O)CNC(=O)CNC(=O)CN1CCN(CC(=O)O)CCN(CC(=O)O)CC1)C(=O)N[C@H]1CC(=O)NCCCC[C@@H](C(N)=O)NC(=O)[C@H](Cc2c[nH]c3ccccc23)NC(=O)[C@H](CCCNC(=N)N)NC(=O)[C@@H](Cc2ccccc2)NC(=O)[C@H](Cc2c[nH]cn2)NC1=O [technetium-99m labelled]", "system": "C57 mouse, kidney", "conditions": "iv, 0.037 MBq, 24 h", "quantity": "tissue uptake", "result": "0.23 ± 0.19 %ID/g"}
{"SMILES": "N=C(N)NCCC[C@@H]1NC(=O)[C@H](CCCCNC(=O)CNC(=O)CNC(=O)CNC(=O)CC[C@H](NC(=O)CNC(=O)CNC(=O)CNC(=O)CN2CCN(CC(=O)O)CCN(CC(=O)O)CCN(CC(=O)O)CC2)C(=O)NCC(=O)NCC(=O)NCC(=O)NCCCC[C@@H]2NC(=O)[C@@H](Cc3ccccc3)NC(=O)[C@H](CC(=O)O)NC(=O)CNC(=O)[C@H](CCCNC(=N)N)NC2=O)NC(=O)[C@@H](Cc2ccccc2)NC(=O)[C@H](CC(=O)O)NC(=O)CNC1=O [indium-111 labelled]", "system": "female athymic nu/nu mice, liver", "conditions": "intravenous, 1 h", "quantity": "tissue uptake", "result": "2.25 ± 0.04 %ID/g"}
{"SMILES": "N=C(N)NCCC[C@@H]1NC(=O)[C@H](CCCCNC(=O)CCOCCOCCOCCOCCNC(=O)CC[C@H](NC(=O)CCOCCOCCOCCOCCNC(=O)CN2CCN(CC(=O)O)CCN(CC(=O)O)CCN(CC(=O)O)CC2)C(=O)NCCOCCOCCOCCOCCC(=O)NCCCC[C@@H]2NC(=O)[C@@H](Cc3ccccc3)NC(=O)[C@H](CC(=O)O)NC(=O)CNC(=O)[C@H](CCCNC(=N)N)NC2=O)NC(=O)[C@@H](Cc2ccccc2)NC(=O)[C@H](CC(=O)O)NC(=O)CNC1=O [indium-111 labelled]", "system": "octanol/water", "quantity": "log P", "result": "-4.2 ± 0.21"}
{"SMILES": "CCCC[C@H](NC(=O)CNC(=O)CNC(=O)CN1CCN(CC(=O)O)CCN(CC(=O)O)CCN(CC(=O)O)CC1)C(=O)N[C@H]1CC(=O)NCCCC[C@@H](C(N)=O)NC(=O)[C@H](Cc2c[nH]c3ccccc23)NC(=O)[C@H](CCCNC(=N)N)NC(=O)[C@@H](Cc2ccccc2)NC(=O)[C@H](Cc2c[nH]cn2)NC1=O [lutetium-177 labelled]", "system": "C57 mouse, female, skin", "conditions": "intravenous, 0.037 MBq, 0.5 h", "quantity": "tissue uptake", "result": "3.28 ± 0.5 %ID/g"}
{"note": "Some of these lines once more:"}
{"SMILES": "N=C(N)NCCC[C@@H]1NC(=O)[C@H](CCCCNC(=O)CNC(=O)CNC(=O)CNC(=O)CC[C@H](NC(=O)CNC(=O)CNC(=O)CNC(=O)CN2CCN(CC(=O)O)CCN(CC(=O)O)CCN(CC(=O)O)CC2)C(=O)NCC(=O)NCC(=O)NCC(=O)NCCCC[C@@H]2NC(=O)[C@@H](Cc3ccccc3)NC(=O)[C@H](CC(=O)O)NC(=O)CNC(=O)[C@H](CCCNC(=N)N)NC2=O)NC(=O)[C@@H](Cc2ccccc2)NC(=O)[C@H](CC(=O)O)NC(=O)CNC1=O [indium-111 labelled]", "system": "female athymic nu/nu mice, liver", "conditions": "intravenous, 1 h", "quantity": "tissue uptake", "result": "2.25 ± 0.04 %ID/g"}
